Assay results gathered from unrelated publications.
Lines come from different studies, so protocols differ. Several values in a cell are separate wells, animals, samples, runs or records. ± marks the error that the study gave.
Sequence of UniProt A5GZW8 (whole entry, looked up): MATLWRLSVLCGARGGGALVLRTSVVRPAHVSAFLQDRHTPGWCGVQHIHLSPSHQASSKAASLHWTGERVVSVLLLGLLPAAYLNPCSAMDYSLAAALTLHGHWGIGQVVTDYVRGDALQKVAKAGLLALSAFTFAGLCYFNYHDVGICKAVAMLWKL
Sequence of UniProt D0VWV4 (whole entry, looked up): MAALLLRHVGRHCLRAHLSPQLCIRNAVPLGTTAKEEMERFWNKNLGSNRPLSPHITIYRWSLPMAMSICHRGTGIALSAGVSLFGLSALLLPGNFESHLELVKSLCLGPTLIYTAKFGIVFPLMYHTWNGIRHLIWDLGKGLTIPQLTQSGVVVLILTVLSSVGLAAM
Sequence of UniProt Q007T0 (whole entry, looked up): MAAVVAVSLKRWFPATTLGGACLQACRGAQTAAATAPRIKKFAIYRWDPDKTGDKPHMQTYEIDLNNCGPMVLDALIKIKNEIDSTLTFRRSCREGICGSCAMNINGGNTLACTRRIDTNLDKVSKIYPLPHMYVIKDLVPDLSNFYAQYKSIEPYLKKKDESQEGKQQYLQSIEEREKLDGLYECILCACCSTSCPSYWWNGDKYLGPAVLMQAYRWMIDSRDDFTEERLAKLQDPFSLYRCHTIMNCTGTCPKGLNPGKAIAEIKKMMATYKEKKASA
Sequence of UniProt P21554 (whole entry, looked up): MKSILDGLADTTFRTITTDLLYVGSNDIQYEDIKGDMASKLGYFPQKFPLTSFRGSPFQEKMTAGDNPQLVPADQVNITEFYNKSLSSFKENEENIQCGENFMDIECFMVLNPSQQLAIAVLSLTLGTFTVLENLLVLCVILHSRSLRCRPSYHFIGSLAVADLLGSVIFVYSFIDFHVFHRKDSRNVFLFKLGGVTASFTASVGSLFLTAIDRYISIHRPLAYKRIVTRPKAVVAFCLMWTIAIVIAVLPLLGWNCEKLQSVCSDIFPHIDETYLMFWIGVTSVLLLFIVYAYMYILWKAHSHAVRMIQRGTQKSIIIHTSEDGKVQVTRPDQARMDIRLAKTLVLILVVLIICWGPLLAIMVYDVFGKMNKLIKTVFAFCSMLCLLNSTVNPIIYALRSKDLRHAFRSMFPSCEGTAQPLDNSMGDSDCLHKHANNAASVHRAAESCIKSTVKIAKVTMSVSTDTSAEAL
Sequence of UniProt P35372 (whole entry, looked up): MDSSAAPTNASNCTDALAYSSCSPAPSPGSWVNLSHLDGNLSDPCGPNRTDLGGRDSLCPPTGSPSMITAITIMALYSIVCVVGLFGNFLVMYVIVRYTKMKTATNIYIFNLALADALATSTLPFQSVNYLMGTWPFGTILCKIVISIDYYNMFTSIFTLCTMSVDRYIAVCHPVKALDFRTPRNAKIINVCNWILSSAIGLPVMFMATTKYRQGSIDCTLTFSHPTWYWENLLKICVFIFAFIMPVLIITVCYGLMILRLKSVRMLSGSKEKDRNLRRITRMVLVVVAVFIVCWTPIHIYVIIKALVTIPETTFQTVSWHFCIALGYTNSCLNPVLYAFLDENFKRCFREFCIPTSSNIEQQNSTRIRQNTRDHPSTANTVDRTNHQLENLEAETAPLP
Sequence of UniProt P41240 (whole entry, looked up): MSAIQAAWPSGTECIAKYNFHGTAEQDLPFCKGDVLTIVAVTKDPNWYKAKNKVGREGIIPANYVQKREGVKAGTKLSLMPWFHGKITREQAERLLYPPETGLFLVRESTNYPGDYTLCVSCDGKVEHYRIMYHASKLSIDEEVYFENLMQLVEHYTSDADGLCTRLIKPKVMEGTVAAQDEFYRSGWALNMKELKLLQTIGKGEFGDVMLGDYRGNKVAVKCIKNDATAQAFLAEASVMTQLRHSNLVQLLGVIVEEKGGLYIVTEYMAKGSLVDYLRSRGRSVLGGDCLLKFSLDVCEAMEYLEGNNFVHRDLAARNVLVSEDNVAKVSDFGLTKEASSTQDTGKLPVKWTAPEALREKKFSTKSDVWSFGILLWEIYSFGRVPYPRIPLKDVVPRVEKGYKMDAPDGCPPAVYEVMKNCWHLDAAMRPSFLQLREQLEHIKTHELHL
Sequence of UniProt P42765 (whole entry, looked up): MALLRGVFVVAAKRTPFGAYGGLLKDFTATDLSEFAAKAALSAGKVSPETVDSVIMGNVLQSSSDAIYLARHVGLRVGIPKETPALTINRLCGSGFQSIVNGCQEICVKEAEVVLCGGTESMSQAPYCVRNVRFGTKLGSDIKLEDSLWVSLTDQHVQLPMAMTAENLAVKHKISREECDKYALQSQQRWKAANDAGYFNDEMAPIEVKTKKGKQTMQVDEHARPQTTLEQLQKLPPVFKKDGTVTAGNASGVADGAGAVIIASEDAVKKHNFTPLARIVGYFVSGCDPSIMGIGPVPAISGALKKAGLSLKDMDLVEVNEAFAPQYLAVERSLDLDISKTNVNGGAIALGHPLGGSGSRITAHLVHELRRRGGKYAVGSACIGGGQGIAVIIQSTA
Sequence of UniProt P0A988 (whole entry, unmodified, looked up): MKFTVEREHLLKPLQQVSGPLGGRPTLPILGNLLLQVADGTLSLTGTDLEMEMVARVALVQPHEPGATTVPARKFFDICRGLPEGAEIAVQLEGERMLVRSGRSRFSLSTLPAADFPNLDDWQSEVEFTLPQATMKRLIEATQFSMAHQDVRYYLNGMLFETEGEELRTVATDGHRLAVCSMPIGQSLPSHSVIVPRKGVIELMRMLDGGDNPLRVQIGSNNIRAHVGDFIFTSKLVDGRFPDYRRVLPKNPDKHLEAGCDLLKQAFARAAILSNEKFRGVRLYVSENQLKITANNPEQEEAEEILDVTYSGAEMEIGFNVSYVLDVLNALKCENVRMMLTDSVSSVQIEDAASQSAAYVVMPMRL
Sequence of UniProt Q9P0L2 (whole entry, looked up): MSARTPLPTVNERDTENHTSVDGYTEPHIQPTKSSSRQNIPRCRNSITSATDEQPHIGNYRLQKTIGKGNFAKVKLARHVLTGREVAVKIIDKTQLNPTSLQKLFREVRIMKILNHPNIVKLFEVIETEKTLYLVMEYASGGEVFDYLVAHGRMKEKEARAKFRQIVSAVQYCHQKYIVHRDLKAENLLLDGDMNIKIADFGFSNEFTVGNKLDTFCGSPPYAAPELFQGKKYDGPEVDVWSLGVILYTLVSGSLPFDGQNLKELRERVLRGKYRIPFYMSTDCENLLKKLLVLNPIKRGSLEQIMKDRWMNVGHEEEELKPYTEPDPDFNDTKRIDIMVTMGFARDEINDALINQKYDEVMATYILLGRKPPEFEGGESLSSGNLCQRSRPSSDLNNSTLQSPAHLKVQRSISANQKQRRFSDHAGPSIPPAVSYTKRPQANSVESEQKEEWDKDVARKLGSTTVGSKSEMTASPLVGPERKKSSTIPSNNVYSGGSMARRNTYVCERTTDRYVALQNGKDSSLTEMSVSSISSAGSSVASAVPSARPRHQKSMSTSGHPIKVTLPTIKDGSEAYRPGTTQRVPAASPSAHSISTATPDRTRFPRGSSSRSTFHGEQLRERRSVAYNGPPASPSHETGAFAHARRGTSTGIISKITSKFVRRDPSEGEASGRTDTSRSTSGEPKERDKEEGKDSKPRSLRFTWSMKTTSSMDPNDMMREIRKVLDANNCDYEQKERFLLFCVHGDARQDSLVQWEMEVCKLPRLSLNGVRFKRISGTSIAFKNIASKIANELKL
Sequence of UniProt Q9BZL6 (whole entry, looked up): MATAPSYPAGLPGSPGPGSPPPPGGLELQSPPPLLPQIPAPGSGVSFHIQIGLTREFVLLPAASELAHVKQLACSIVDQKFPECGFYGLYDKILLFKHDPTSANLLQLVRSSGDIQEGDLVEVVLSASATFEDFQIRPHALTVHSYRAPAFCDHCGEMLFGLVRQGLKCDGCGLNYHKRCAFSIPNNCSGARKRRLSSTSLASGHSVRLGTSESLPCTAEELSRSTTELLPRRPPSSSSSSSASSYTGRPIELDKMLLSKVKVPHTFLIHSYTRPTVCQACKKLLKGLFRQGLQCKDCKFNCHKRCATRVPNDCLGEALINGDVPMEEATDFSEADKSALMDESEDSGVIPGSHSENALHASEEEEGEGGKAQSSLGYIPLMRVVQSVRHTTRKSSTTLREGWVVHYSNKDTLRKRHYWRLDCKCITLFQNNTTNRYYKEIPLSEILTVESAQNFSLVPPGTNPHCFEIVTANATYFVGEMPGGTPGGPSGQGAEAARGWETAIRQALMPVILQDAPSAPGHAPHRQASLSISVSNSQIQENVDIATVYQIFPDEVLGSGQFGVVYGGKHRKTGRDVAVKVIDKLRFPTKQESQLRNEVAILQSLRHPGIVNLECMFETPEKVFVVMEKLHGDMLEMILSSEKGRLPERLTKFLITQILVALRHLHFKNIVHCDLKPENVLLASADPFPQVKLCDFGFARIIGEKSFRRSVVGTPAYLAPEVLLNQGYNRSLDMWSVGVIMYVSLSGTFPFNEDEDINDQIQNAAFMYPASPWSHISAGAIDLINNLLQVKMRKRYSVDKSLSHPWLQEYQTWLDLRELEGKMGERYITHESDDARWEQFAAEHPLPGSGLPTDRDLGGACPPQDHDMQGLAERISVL
Sequence of UniProt O14757 (whole entry, looked up): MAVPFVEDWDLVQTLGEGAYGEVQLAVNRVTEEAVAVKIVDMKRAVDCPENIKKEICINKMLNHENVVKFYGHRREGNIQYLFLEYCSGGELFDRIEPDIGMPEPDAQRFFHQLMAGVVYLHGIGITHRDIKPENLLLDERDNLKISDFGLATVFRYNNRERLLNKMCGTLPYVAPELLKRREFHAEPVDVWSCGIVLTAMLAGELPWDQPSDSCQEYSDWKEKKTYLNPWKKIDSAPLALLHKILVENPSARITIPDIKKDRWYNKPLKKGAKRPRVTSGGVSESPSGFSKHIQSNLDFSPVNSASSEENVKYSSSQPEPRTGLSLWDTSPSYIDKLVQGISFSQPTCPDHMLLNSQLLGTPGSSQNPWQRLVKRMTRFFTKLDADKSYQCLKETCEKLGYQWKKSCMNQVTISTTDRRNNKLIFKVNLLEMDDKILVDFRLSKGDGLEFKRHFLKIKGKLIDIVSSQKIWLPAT

SMILES	target	assay	system	setting	how to read	endpoint	result
C[C@@H](Cc1ccsc1)NC(=O)NC[C@H](Cc1ccc(O)cc1)N(C)C	Mu-type opioid receptor, with Gi2 (OPRM1, Homo sapiens, UniProt P35372)	receptor activation, agonist	–	–	–	Emax	73 ± 13%
CN(C)[C@H]1C[C@@]23CC[C@@]4(O2)C(=CC[C@]2(C)[C@@H](c5ccc6ccncc6c5)CC[C@H]24)C=C3[C@@H](O)[C@@H]1O	CSK (Homo sapiens, UniProt P41240)	ATP probe labelling, inhibitor, KiNativ profiling	–	0.1 µM	–	inhibition	-5.7%
O=C(O)c1cccc(CP(=O)(O)O)n1	VIM-2 (Escherichia coli, UniProt Q5U7L7)	inhibitor	–	added: nitrocefin	–	dissociation half-life	7.7 ± 0.3 min
O=C1NC(=O)c2c1c1cc(F)c[n+]3c1c1c2c2cc(O)ccc2[n]1[Ru-4]312([N]=C=S)[S+]3CC[S+]1CC[S+]2CC3 (stereo not drawn)	MARK1 (Homo sapiens, UniProt Q9P0L2)	enzyme activity	–	100 nM, human enzyme, added: 10 µM ATP	relative to: untreated	remaining activity	16%
CC(C)[C@H]1NC(=O)C[C@H]2/C=C/CCSSC[C@@H](NC1=O)C(=O)N[C@H](Cc1cccc3ccccc13)C(=O)NCC(=O)O2	CHEK1 (Homo sapiens, UniProt O14757)	enzyme activity, inhibitor	–	10 µM	–	inhibition	0.0441%
CON(C(=O)c1cn(C)nc1C(F)F)C(C)Cc1c(Cl)cc(Cl)cc1Cl (stereo not drawn)	SDHD/SDHC/SDHB (Sus scrofa, UniProt A5GZW8+D0VWV4+Q007T0)	enzyme activity, inhibitor, DCIP reduction	pig	0.6 µM, added: DCIP 160 µM	–	reaction velocity	0.0122 µM/s and 0.0113 µM/s and 0.013 µM/s
COCC1CCCCN1C(=O)n1cc(C(O)(c2ccccc2)c2ccccc2)nn1 (stereo not drawn)	Abhd6 (Mus musculus, UniProt Q8R2Y0)	probe labelling, inhibitor, competitive ABPP-SILAC	mouse T cells	concentration not given, 4 h, protein level	relative to: treated over DMSO cells, lower = stronger inhibition	SILAC activity ratio	0.95
CS(C)(=O)=Nc1ccc(-c2ccc(-c3nc4cc(O[C@@H]5CO[C@H]6[C@@H]5OC[C@H]6O)[nH]c4cc3F)cc2)cc1	PRKD2 (Homo sapiens, UniProt Q9BZL6)	enzyme activity, inhibitor	–	10 µM	–	inhibition	1%
C=CC(=O)NC[C@H](NC(=O)[C@H](CC1CCCCC1)NC(=O)[C@H](CCC(N)=O)NC(C)=O)C(=O)N[C@@H](CC(C)C)C(=O)N[C@@H](Cc1ccccc1)C(=O)O	Beta sliding clamp (Escherichia coli, UniProt P0A988)	binding, isothermal titration calorimetry	–	pH 7.4, 37 °C	–	ΔH	-66.5 kJ/mol
Cc1cccc(/N=N/c2cccc([B-](F)(F)F)c2)c1.[K+]	Chymotrypsinogen A (Bos taurus, UniProt P00766)	enzyme activity, inhibitor	–	added: Suc-AAPF-AMC	relative to: Ki cis over Ki trans	switching factor	1.3 ± 0.2
C#CCCCCOc1ccc2c(c1)CCCN2C(=O)CCl	3-ketoacyl-CoA thiolase, mitochondrial (Homo sapiens, UniProt P42765)	mass spectrometry profiling	H460 cell lysate	100 µM over 10 µM, UniProt P42765	relative to: high over low concentration	reactivity ratio	0.596
COC(=O)[C@@H](NC(=O)c1nn(Cc2ccc(F)cc2)c2cc(OCCCCNC(=N)N)ccc12)C(C)(C)C	Cannabinoid receptor 1, with Gi1 (CNR1, Homo sapiens, UniProt P21554)	GTP turnover, agonist, item: Gi1 Gα subtype	–	–	–	maximal efficacy	176%
